Experimental data from different studies.
Protocols differ between the studies behind these lines.
Target: Non-receptor tyrosine-protein kinase TNK1 (TNK1, Homo sapiens, UniProt Q13470)

Compound	assay	system	setting	how to read	quantity	result
NC(=O)C[C@H]1CCc2sc3ncnc(O[C@H]4CC[C@H](N5CCOCC5)CC4)c3c21	enzyme activity, inhibitor		10 µM		inhibition	10%
COc1cc(Nc2nccc(-c3cnn4nc(OC)ccc34)n2)cc(C(F)(F)F)c1	binding, competition with immobilised ligand		1 µM		remaining binding	89%
C=CC(=O)Nc1cc(-c2nn(C3CCN(CCNC(=O)[C@H](C)CCC45CC6CC(CC(C6)C4)C5)CC3)c3ncnc(N)c23)ccc1Oc1ccccc1	inhibitor, KiNativ profiling	biochemical	2 µM		inhibition	-2.2%
C=CC(=O)N1CCc2ccc(-n3c(=O)ccc4cnc5ccc(-c6cnn(C)c6)cc5c43)cc21	KINOMEscan		1 µM	relative to: DMSO control	remaining binding	16%
Cc1ccc(-c2c(/C=C(\C#N)C(=O)NC(C)C)n(CCCO)c3ncnc(N)c23)cc1	cell-free assay, competition with immobilised ligand		1 µM		remaining binding	100%
Cc1cnc2nc1Nc1cccc(c1)COC/C=C/COCc1cc(ccc1OCCN1CCOCC1)N2	binding, competition with immobilised ligand		0.1 µM		remaining binding	35%
CN1CCN(Cc2ccc(-c3ccc(CO[C@H]4CCC[C@@H]4NC(=O)c4cc(-c5cnn(C)c5)cnc4N)cc3)cc2)CC1	enzyme activity, inhibitor		0.1 µM		inhibition	7%
Cc1ccc(C(=O)Nc2ccc(CN3CCN(C)CC3)c(C(F)(F)F)c2)cc1C#Cc1cnc2cccnn12	target engagement, NanoBRET	human cells			Hill slope	1.11
C=CC(=O)N1Cc2nc(-c3cc(-c4cc(Cl)cnc4Cl)c(F)cc3F)n(-c3ccncn3)c2C1	cell-free assay, inhibitor		1 µM		inhibition	2.7%
COC(=O)[C@@]1(C)C=C(C(=O)Nc2cccc(C(=O)Nc3ccc(Nc4nccc(-c5cccnc5)n4)c(C)c3)c2)C(=O)CC1	binding, competition with immobilised ligand		1 µM		remaining binding	69%
Nc1ncc(-c2cc(-c3cnn(CC(F)(F)F)c3)ncc2F)nc1C(=O)NC1CNCC(F)C1 (stereo not shown)	enzyme activity		1 µM	relative to: DMSO control	remaining activity	99.5%
CNC1C[S+]2CC[S+]3CC[S+](C1)[Ru-4]321([N]=C=S)[n]2c3ccc(OC)cc3c3c4c(c5cc(F)c[n+]1c5c32)C(=O)NC4=O (stereo not shown)	KinomeScan		0.1 µM	relative to: untreated	remaining binding	100%
Nc1ncc2c(n1)-c1c([nH]c3ccc(C4=CCOCC4)cc13)CCC2	binding, competition with immobilised ligand		1 µM		remaining binding	100%

Repeated from above:
Compound	assay	system	setting	how to read	quantity	result
Cc1cnc2nc1Nc1cccc(c1)COC/C=C/COCc1cc(ccc1OCCN1CCOCC1)N2	binding, competition with immobilised ligand		0.1 µM		remaining binding	35%
CN1CCN(Cc2ccc(-c3ccc(CO[C@H]4CCC[C@@H]4NC(=O)c4cc(-c5cnn(C)c5)cnc4N)cc3)cc2)CC1	enzyme activity, inhibitor		0.1 µM		inhibition	7%
